Measurements of several laboratories.
Compare with care: the assays were run in different laboratories. ± gives the spread as reported.

Structure (SMILES) | cell line | test | test system | setting | IC50
C=CCc1cc(OC)c(OC(C)=O)c(OC)c1 | HSC-4 | MTT |  | 24 h | > 50 µM
Cc1cc(C=O)cc(C)c1Oc1cc(Nc2ccc(C#N)cc2)nc2cnccc12 | HuCC-A1 |  |  | 48 h | > 127 µM
C=C[CH2][Pd-]([Cl])[Cl].Cc1cc(C)c(-n2c[n+](-c3c(C)cc(C)cc3C)c3c2-c2cccc4cccc-3c24)c(C)c1 | 2008 spheroids | cell viability, APH | 3D spheroids | 72 h | 24.3 ± 0.9 µM
O=C(c1ccncc1)N1N=C2/C(=C/c3ccc(Cl)cc3)CCCC2C1c1ccc(Cl)cc1 (stereo not shown) | human erythrocytes | membrane protection, HRBC membrane stabilization |  |  | 0.15 µM
COc1ccc2cc3[n+](cc2c1OCc1cn(Cc2ccc(C(C)(C)C)cc2)nn1)CCc1cc2c(cc1-3)OCO2 | SW1990 | cell growth or viability, MTT |  |  | 8.54 µM
CC(=O)O[C@@H]1CC[C@@]2(C)[C@@H](CC[C@]3(C)[C@@H]2C(=O)C=C2[C@@H]4[C@@H](C)[C@H](C)CC[C@]4(C)CC[C@]23C)[C@@]1(C)C(=O)NCCNC(=O)CCCCCBr | HBE | cell growth or viability, MTT |  | 48 h | 13.1 µM
CC(C)Cc1ccc(C(C)C(=O)[O][Pt]([NH2])([NH2])([Cl])([Cl])[O]C(=O)CCCc2ccccc2)cc1 (stereo not shown) | LoVo | cell growth or viability, MTT |  | 72 h | 0.211 µM
C[C@@H]1CC(=O)N(C2CCOCC2)N=C1c1ccc(NC(=O)N2Cc3ccncc3C2)cc1 | MDA-MB-453 | cell growth or viability, ATP luminescence |  |  | 0.0027 µM
O=C(Cc1ccc2ccccc2c1)N[C@H](Cc1ccccc1)C(=O)N[C@H](Cc1ccc(OP(=O)(O)O)cc1)C(=O)N[C@H](Cc1ccccc1)C(=O)N[C@H](Cc1ccc(OP(=O)(O)O)cc1)C(=O)O | T98G | cell growth or viability, MTT |  |  | 367 µg/mL
C=C1C(=O)[C@@]23CC[C@@H]4C(C)(C)CCC[C@@]4(CO)[C@@H]2[C@@H](O)C[C@@H]1C3 | HBE | cell growth or viability, MTT |  |  | > 20 µM
CCCCCCCCCCn1c(-c2cccnc2)nc(-c2ccc(C)cc2)c1-c1ccc(C)cc1 | L929 | cell growth or viability, SRB |  |  | 199 µM
C=CC(=C)CC[C@]1(C)[C@H](C)C[C@H](OC(=O)CCCCCCC)[C@@]23C(=C[C@H](OC(C)=O)C[C@@H]12)[C@@H](OC(C)=O)O[C@H]3OC(C)=O | KB | cell growth or viability, SRB |  |  | 5.16 µM
CC(C)c1cccc(C(C)C)c1-n1c(Cl)c(Cl)n(-c2c(C(C)C)cccc2C(C)C)c1=[Se].[Cl][Ag] | LoVo | cell growth or viability, MTT |  | 72 h | 1.8 µM
CN(C)c1ccc(/C=C2\Oc3cc(O)ccc3C2=O)cc1 | myeloma cell lines | cell viability, MTT |  |  | 7 to 9 µM
COc1ccc2cc3[n+](cc2c1OCc1cn(Cc2c(Cl)cccc2Cl)nn1)CCc1cc2c(cc1-3)OCO2 | SW1990 | cell growth or viability, MTT |  |  | 22.8 µM
COc1ccc(C[C@H]2COC(=O)[C@@H]2Cc2ccc(OCCCCCCCCC(=O)NO)c(OC)c2)cc1OC | Kasumi 1 | cell growth or viability, CCK-8 |  | 48 h | > 5 µM
N#C/C(=C\c1cn(-c2ccccc2)nc1-c1cccc(Cl)c1)c1nc2ccccc2[nH]1 | SW1990 | cell growth or viability, ATP luminescence |  | 72 h | 70.3 µM
CCCCCCC(=O)NCCNC(=O)[C@@]1(C)[C@H](O)CC[C@@]2(C)[C@H]1CC[C@]1(C)[C@@H]2C(=O)C=C2[C@@H]3[C@@H](C)[C@H](C)CC[C@]3(C)CC[C@]21C | HBE | cell growth or viability, MTT |  | 48 h | 7.86 µM
N=C(N/N=C/c1cncnc1)N/N=C/c1cncnc1 | KP-4 | cell growth or viability, crystal violet |  | 72 h | 119 µM

Excerpt of the above:
Structure (SMILES) | cell line | test | test system | setting | IC50
O=C(c1ccncc1)N1N=C2/C(=C/c3ccc(Cl)cc3)CCCC2C1c1ccc(Cl)cc1 (stereo not shown) | human erythrocytes | membrane protection, HRBC membrane stabilization |  |  | 0.15 µM
COc1ccc2cc3[n+](cc2c1OCc1cn(Cc2ccc(C(C)(C)C)cc2)nn1)CCc1cc2c(cc1-3)OCO2 | SW1990 | cell growth or viability, MTT |  |  | 8.54 µM
